# Measurements from different studies.
# Lines come from different studies, so protocols differ.
# Organism: Acinetobacter baumannii
Structure (SMILES),assay,test system,setting,quantity,value
CC(C)C[C@H](NC(=O)[C@H](Cc1c[nH]c2ccccc12)NC(=O)[C@H](CCCNC(=N)N)NC(=O)[C@@H](N)Cc1ccccc1)C(=O)N[C@@H](CCCNC(=N)N)C(=O)N[C@@H](CCCCN)C(=O)N[C@@H](Cc1c[nH]c2ccccc12)C(=O)N[C@@H](Cc1ccccc1)C(=O)N[C@@H](CCCNC(=N)N)C(=O)N[C@@H](CCCNC(=N)N)C(=O)O,"bacterial killing, colony count",ATCC 17978,"1 h, pH 7, 37 °C",EC50,1.8 µg/mL
CC[C@H](C)[C@H](NC(=O)CNC(=O)[C@H](CCCNC(=N)N)NC(=O)[C@H](Cc1ccccc1)NC(=O)[C@@H](NC(=O)[C@H](Cc1c[nH]cn1)NC(=O)[C@H](Cc1c[nH]cn1)NC(=O)[C@H](Cc1ccccc1)NC(=O)[C@@H](N)Cc1ccccc1)[C@@H](C)CC)C(=O)N[C@H](C(=O)N[C@@H](Cc1c[nH]cn1)C(=O)N[C@H](C(=O)NCC(=O)N[C@@H](CCCCN)C(=O)N[C@H](C(=O)N[C@@H](CCCCN)C(=O)N[C@@H](Cc1c[nH]cn1)C(=O)N[C@@H](CCCNC(=N)N)C(=O)N[C@@H](CC(C)C)C(=O)N[C@H](C(=O)N[C@H](C(=O)NCC(N)=O)[C@@H](C)O)C(C)C)[C@@H](C)O)C(C)C)C(C)C,,colistin-resistant clinical,"18 h, 37 °C",MIC,3.1 µg/mL
Cc1cc(Nc2ccc(S(F)(F)(F)(F)F)cc2)n2ccnc2n1,optical density 600 nm,meropenem-intermediate and -resistant,,MIC,0.27 to 3 µg/mL
CC[C@H](C)[C@H](NC(=O)CNC(=O)[C@H](CCCNC(=N)N)NC(=O)[C@H](Cc1ccccc1)NC(=O)[C@@H](NC(=O)[C@H](Cc1c[nH]cn1)NC(=O)[C@H](Cc1c[nH]cn1)NC(=O)[C@H](Cc1ccccc1)NC(=O)[C@@H](N)Cc1ccccc1)[C@@H](C)CC)C(=O)N[C@H](C(=O)N[C@@H](Cc1c[nH]cn1)C(=O)N[C@H](C(=O)NCC(=O)N[C@@H](CCCCN)C(=O)N[C@H](C(=O)N[C@H](C(=O)N[C@@H](Cc1c[nH]cn1)C(=O)N[C@@H](CCCNC(=N)N)C(=O)N[C@@H](CC(C)C)C(=O)N[C@H](C(=O)N[C@H](C(=O)NCC(N)=O)[C@@H](C)O)C(C)C)[C@@H](C)CC)[C@@H](C)O)C(C)C)C(C)C,,colistin-resistant clinical,"18 h, 37 °C",MIC,3.1 µg/mL
CC(C)C[C@H](NC(=O)[C@H](CCCCN)NC(=O)[C@H](CC(C)C)NC(=O)[C@H](Cc1c[nH]c2ccccc12)NC(=O)[C@H](CCCNC(=N)N)NC(=O)[C@H](Cc1ccccc1)NC(=O)[C@H](CCCNC(=N)N)NC(=O)[C@H](CCCNC(=N)N)NC(=O)[C@H](CCCCN)NC(=O)[C@@H](N)CCCCN)C(=O)N[C@@H](CCCCN)C(=O)O,"bacterial killing, colony count",ATCC 17978,"1 h, pH 7, 37 °C",EC50,10.6 µg/mL
CC[C@H](C)CCCCC(=O)N[C@@H](CCN)C(=O)N[C@H](C(=O)N[C@@H](CCN)C(=O)N[C@H]1CCNC(=O)[C@H]([C@@H](C)O)NC(=O)[C@H](CCN)NC(=O)[C@H](CCN)NC(=O)[C@H](CC(C)C)NC(=O)[C@@H](CC(C)C)NC(=O)[C@H](CCN)NC1=O)[C@@H](C)O,broth microdilution,ATCC 19606,"20 h, 37 °C",MIC,0.11 µM
CC[C@H](C)[C@H](NC(=O)[C@H](Cc1c[nH]cn1)NC(=O)[C@H](Cc1c[nH]cn1)NC(=O)[C@H](Cc1ccccc1)NC(=O)[C@@H](N)Cc1ccccc1)C(=O)N[C@@H](Cc1ccccc1)C(=O)N[C@@H](CCCNC(=N)N)C(=O)NCC(=O)N[C@@H](C)C(=O)N[C@H](C(=O)N[C@@H](Cc1c[nH]cn1)C(=O)N[C@H](C(=O)NCC(=O)N[C@@H](CCCCN)C(=O)N[C@H](C(=O)N[C@H](C(=O)N[C@@H](Cc1c[nH]cn1)C(=O)N[C@@H](CCCNC(=N)N)C(=O)N[C@@H](CC(C)C)C(=O)N[C@H](C(=O)N[C@H](C(=O)NCC(N)=O)[C@@H](C)O)C(C)C)[C@@H](C)CC)[C@@H](C)O)C(C)C)C(C)C,,colistin-resistant clinical,"18 h, 37 °C",MIC,3.1 µg/mL
C[C@@H](O)[C@H]1C(=O)N2C(C(=O)O)=C(SCCN=CN)C[C@H]12,broth microdilution,ATCC 17978 pET-RA-KmR OXA-23,without inhibitor,MIC,8 µg/mL
CC[C@H](C)[C@H](NC(=O)[C@H](CC(C)C)NC(=O)CNC(=O)[C@@H]1CCCN1C(=O)[C@H](CC(C)C)NC(=O)[C@H](C)NC(=O)[C@H](CCCCN)NC(=O)CNC(=O)[C@H](CC(C)C)NC(=O)[C@H](CCSC)NC(=O)[C@H](CCCCN)NC(=O)[C@H](C)NC(=O)[C@H](C)NC(=O)[C@H](C)NC(=O)CNC(=O)[C@H](Cc1c[nH]c2ccccc12)NC(=O)[C@@H](N)Cc1ccccc1)C(=O)N[C@@H](CO)C(=O)N[C@@H](CCSC)C(=O)N[C@@H](Cc1ccccc1)C(=O)N[C@@H](CCC(N)=O)C(=O)N[C@@H](CCCCN)C(=O)N[C@@H](CC(N)=O)C(=O)O,broth microdilution,ATCC 19606,"20 h, 37 °C",MIC,12.9 µM

# For quick reference, copied from above:
Structure (SMILES),assay,test system,setting,quantity,value
CC(C)C[C@H](NC(=O)[C@H](Cc1c[nH]c2ccccc12)NC(=O)[C@H](CCCNC(=N)N)NC(=O)[C@@H](N)Cc1ccccc1)C(=O)N[C@@H](CCCNC(=N)N)C(=O)N[C@@H](CCCCN)C(=O)N[C@@H](Cc1c[nH]c2ccccc12)C(=O)N[C@@H](Cc1ccccc1)C(=O)N[C@@H](CCCNC(=N)N)C(=O)N[C@@H](CCCNC(=N)N)C(=O)O,"bacterial killing, colony count",ATCC 17978,"1 h, pH 7, 37 °C",EC50,1.8 µg/mL
